Measured values pooled from the literature.
A part holds a random share of what one study measured. Positions count from the first letter of the parent shown.

Set 1 — technique: DHFR PCA, deep sequencing; medium: yeast; added: (+)-ABA 0 µM; relative to: wild-type fitted maximum; direction: higher = stronger binding
Target: ABI1, truncated, D143A, DHFR fusion (Arabidopsis thaliana)
Notes: methotrexate growth selection, single substitutions
Starting sequence: PYL1, truncated, DHFR fusion (Arabidopsis thaliana); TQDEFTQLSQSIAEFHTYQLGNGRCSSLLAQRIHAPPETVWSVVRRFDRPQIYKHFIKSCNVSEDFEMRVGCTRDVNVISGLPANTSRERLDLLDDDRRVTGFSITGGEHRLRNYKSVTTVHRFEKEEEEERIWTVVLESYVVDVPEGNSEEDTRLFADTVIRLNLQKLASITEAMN; partner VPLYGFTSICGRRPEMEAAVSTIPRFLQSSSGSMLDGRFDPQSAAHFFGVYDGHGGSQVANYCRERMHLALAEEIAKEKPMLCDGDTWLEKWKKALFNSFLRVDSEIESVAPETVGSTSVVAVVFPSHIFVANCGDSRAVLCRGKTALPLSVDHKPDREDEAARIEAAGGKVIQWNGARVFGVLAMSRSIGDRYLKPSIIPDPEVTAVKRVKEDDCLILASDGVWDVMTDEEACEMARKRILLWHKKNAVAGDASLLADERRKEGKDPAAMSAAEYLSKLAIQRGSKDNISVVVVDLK
Substitution	relative binding score [%]
Q7S	26.9
T154E	-9.16
F47W	-0.34
T86Q	4.02
Q10E	45.3
D75F	15.4
V145M	-10.5
F124L	34.7

Set 2 — target: CCND2, cyclin fold, Cln2 fusion (human); technique: yeast growth competition, sequencing; medium: yeast; notes: weak parent motif; relative to: not given; direction: higher = stronger binding
Starting sequence: CENPC docking peptide (human); VKTKKRLNFDDKV; partner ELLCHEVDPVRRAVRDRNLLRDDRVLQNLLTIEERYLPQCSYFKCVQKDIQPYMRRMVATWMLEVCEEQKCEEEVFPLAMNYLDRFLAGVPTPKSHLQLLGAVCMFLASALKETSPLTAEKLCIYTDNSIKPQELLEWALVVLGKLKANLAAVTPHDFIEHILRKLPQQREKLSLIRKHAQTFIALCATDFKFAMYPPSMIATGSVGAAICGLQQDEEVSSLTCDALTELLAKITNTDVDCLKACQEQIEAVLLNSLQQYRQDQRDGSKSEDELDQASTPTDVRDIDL
Substitution	normalised enrichment score
AKTKKRLNFDDKV [V1A]	0.421
VKAKKRLNFDDKV [T3A]	0.0916
VKTKKRANFDDKV [L7A]	0.212
VKTKARLNFDDKV [K5A]	0.313
VKTKKRLNFDDKA [V13A]	-0.0108
VKTKKRLNFDDAV [K12A]	0.35
VKTKRRLNFDDKV [K5R]	1.42

Set 3 — technique: protein binding microarray; molecule type: double-stranded DNA, one strand shown; medium: in vitro; concentration: not given; relative to: not given; direction: higher = stronger binding
Target: Histone acetyltransferase KAT6A, both winged helices, GST fusion (KAT6A, Homo sapiens, UniProt Q92794, residues 1-181)
Notes: 8-mer, flanks averaged, mean of 2 arrays, mostly near background
Target sequence (chain): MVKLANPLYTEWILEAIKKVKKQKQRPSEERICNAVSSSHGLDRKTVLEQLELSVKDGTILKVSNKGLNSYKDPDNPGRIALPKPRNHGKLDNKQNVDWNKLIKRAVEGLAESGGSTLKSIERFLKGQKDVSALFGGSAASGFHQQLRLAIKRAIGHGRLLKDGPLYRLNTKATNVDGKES
Sequence	E-score
AACCCTGC	-0.0652
CGCCAAAG	0.117
CTACACCA	-0.254
CGGTCTTC	0.0993
CCAAATGC	-0.187
CGCACACC	0.176
CCGTAGAC	0.177
GGCGAACA	0.218
ACTCTACC	-0.186
ACATGGGG	-0.179
AGAGGCCG	0.0915
CTGACACA	-0.138

Other studies, line by line
Substance	target	assay	test system	conditions	scale	quantity	value
PhoQ, residues 284 288 289 292 302 303 SSTLSG	PhoP, residues 12 14 15 18 19 IFFTR (Escherichia coli, UniProt P23836)	Sort-seq, refers to: YFP reporter	E. coli	PhoQ-PhoP variant library, added: 10 µM Mg2+	relative to: high Mg2+ state, higher = stronger signaling	fold induction	5.26

Excerpt of the above (set 3):
Sequence	E-score
CTACACCA	-0.254
CGGTCTTC	0.0993
CCAAATGC	-0.187
